Measured values of several laboratories.
Protocols differ between the studies behind these lines. ± gives the spread as reported.
UCHL1: Ubiquitin carboxyl-terminal hydrolase isozyme L1 (UCHL1, Homo sapiens, UniProt P09936)
Sequence of UniProt P09936 (whole entry, looked up): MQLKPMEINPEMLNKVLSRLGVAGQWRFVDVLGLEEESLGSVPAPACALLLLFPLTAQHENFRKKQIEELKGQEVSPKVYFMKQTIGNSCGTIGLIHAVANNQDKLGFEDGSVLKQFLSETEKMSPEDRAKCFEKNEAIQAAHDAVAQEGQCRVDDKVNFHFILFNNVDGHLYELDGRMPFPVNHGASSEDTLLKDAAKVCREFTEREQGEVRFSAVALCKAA

| SMILES | target or system | test | test system | setting | scale | quantity | value |
| --- | --- | --- | --- | --- | --- | --- | --- |
| CC(C)NCC(O)c1ccc(O)c(O)c1 (centres unmarked) | – | – | ventricular cardiomyocytes, C57BL/6 mouse | dose not given, 0.532 s | – | sarcomere length | 1.49 µm |
| OC(CCN1CCCCC1)(c1ccccc1)C1CC2C=CC1C2 (centres unmarked) | Toxoplasma gondii | parasite growth, luciferase reporter | HFF, tachyzoite | 72 h | – | EC50 | 26.9 µM |
| O=C(CCl)Nc1nnc(SCc2ccccc2)s1 | UCHL1 | covalent, intact protein LC-MS | – | 12.5 µM | – | labelling | 30.9% |
| OC[C@H]1O[C@@H]2O[C@H]3[C@H](O)[C@@H](O)[C@@H](O[C@H]4[C@H](O)[C@@H](O)[C@@H](O[C@H]5[C@H](O)[C@@H](O)[C@@H](O[C@H]6[C@H](O)[C@@H](O)[C@@H](O[C@H]7[C@H](O)[C@@H](O)[C@@H](O[C@H]8[C@H](O)[C@@H](O)[C@@H](O[C@H]1[C@H](O)[C@H]2O)O[C@@H]8CO)O[C@@H]7CO)O[C@@H]6CO)O[C@@H]5CO)O[C@@H]4CO)O[C@@H]3CO | LuxR | Escherichia coli sensor | – | 4 µM | higher = stronger induction | bioluminescence induction | 879 ± 50 RLU |
| COc1cc(C#CC(=O)c2ccccc2OC)ccc1O | Pseudomonas aeruginosa | static biofilm | PA14 | 10 µM, 24 h, static | baseline: DMSO | biofilm formation | 70% |
| Cc1ccc(S(=O)(=O)/C=C/C#N)cc1 | Toxoplasma gondii | parasite growth | HFF, bradyzoite, glutamine-induced | – | – | EC90 | 6.71 µM |
| NC(=O)c1cnc2[nH]ccc2c1N[C@@H]1[C@@H]2CC3C[C@H]1C[C@@](O)(C3)C2 | – | CD4+ naive T cells, flow cytometry | Japanese humans, peripheral blood | 60 mg single dose | baseline: baseline | percent change | -1.33% |
| COc1cccc(C(=O)C#Cc2ccc(O)c(OC)c2)c1 | Pseudomonas aeruginosa | static biofilm | PA14 | 10 µM, 24 h | baseline: DMSO | biofilm formation | 65% |
| OC(CCN1CCCCC1)(c1ccccc1)C1CC2C=CC1C2 (centres unmarked) | – | resting-state EEG | healthy elderly humans | oral, 2 mg, eyes closed, LS mean | – | EEG Alpha2-power Pz-O2 | 4.6 µV² |
| Oc1ccccc1-c1n[nH]cc1-c1ccnc2ccccc12 | BUB1 (Candida albicans) | kinase binding, MIB/MS competition | Candida albicans lysate | 10 µM | baseline: DMSO | log2 fold change | 0.45 |
| CCn1cc(-c2cc(Cn3ccnc3)cc3c2CCN([C@H](c2cc(OC)ccn2)C2CC2)C3=O)c(C(F)(F)F)n1 | SNU761 | cell growth | – | 120 h | – | EC50 | 20.1 µM |
| CCC(C)C(=O)C#Cc1ccc(O)c(OC)c1 (centres unmarked) | Pseudomonas aeruginosa | static biofilm | PA14 | 10 µM, 24 h, static | baseline: DMSO | biofilm formation | 80% |
| CC(C)(C)c1cc(/C=C(\C#N)C(N)=S)cc(C(C)(C)C)c1O | Toxoplasma gondii | parasite growth | HFF, bradyzoite, alkaline-induced | – | – | EC90 | 182 µM |
| C[C@H](Oc1ccc(Br)cc1-c1ccon1)C(=O)O | – | muscle velocity recovery cycles | human, tibialis anterior muscle | 400 mg once daily, multiple doses, multiple ascending dose | baseline: placebo | CMAP amplitude | -0.082 mV |
| O=C(/C=C/C=C/C=C/C1CCCCC1)NC1=C[C@@](O)(/C=C/C=C/C=C/C(=O)NC2=C(O)CCC2=O)[C@@H]2O[C@@H]2C1=O | RVH-421 | cell growth, CellTiter-Glo | – | 78 h | – | GI50 | 16.9 µM |
| CC(C)(C)c1ccc(S(=O)(=O)/C=C/C#N)cc1 | Toxoplasma gondii | parasite growth | HFF, bradyzoite, glutamine-induced | – | – | EC50 | 6.19 µM |

| SMILES | target or system | test | test system | setting | scale | quantity | value |
| --- | --- | --- | --- | --- | --- | --- | --- |
| CCN(CC)CCNC(=O)c1c(C)[nH]c(/C=C2\C(=O)Nc3ccc(F)cc32)c1C | CaMKII (rat) | kinase activity, inhibitor | – | 0.3 µM | – | inhibition | 12% |
| c1coc(-c2n[nH]cc2-c2ccnc3ccccc23)c1 | RCK2 (Candida albicans) | kinase binding, MIB/MS competition | Candida albicans lysate | 1 µM | baseline: DMSO | log2 fold change | -0.25 |
| C[n+]1cc2c3c(ccc2c2ccc4cc5c(cc4c21)OCO5)OCO3 | Toxoplasma gondii | parasite growth, luciferase reporter | HFF host cells, tachyzoites | 72 h | – | EC50 | 0.3 µM |
| C[C@H]1C[C@H]2CSC(N)=N[C@@]2(c2nc(NC(=O)c3ccc(OC(F)F)cn3)cs2)CO1 | – | measured: Aβ1-40 | healthy adults, plasma | 400 mg single dose, 6 h post-dose | baseline: placebo | percent change from baseline | -78.2% |
| S=C(S)N1CCCC1 | Toxoplasma gondii | parasite growth | HFF, bradyzoite, glutamine-induced | – | – | EC90 | 22.2 µM |
| COc1cc(C#CC(=O)c2ccccc2)ccc1O | Pseudomonas aeruginosa | RT-qPCR, measured: phzC1 | biofilm cells | 10 µM, 24 h | baseline: untreated | mRNA level | 34% |
| CC#CC(=O)N(CCCOC)C(C)c1cccs1 (centres unmarked) | UCHL1 | covalent, intact protein LC-MS | – | 12.5 µM | – | labelling | 13.9% |
| O=C(C#Cc1ccc(F)c(F)c1)c1ccc(Cl)cc1 | Pseudomonas aeruginosa | static biofilm | PA14 | 10 µM, 24 h | baseline: DMSO | biofilm formation | 62% |
| COc1ccc(/C=C/CN2CCCC(CCC(=O)NCc3ccc(F)c(F)c3)C2)cc1 (centres unmarked) | Trypanosoma cruzi | reporter translation, Renilla luciferase mRNA translation | cell-free extract | 40 µM | baseline: DMSO | inhibition | 3.4% |
| Cn1cc(-c2ccc(-c3cncc(Cl)c3N3CCC4(CCNC4=O)CC3)cc2)cn1 | COLO 205 | gene expression, microarray, measured: NAIP mRNA | – | concentration not given, 2 h | baseline: untreated cells | log2 fold change | 2.6 |
| COc1cc(C#C[C@H](O)CC(C)C)ccc1O | Pseudomonas aeruginosa | static biofilm | PA14 | 10 µM, 24 h, static | baseline: DMSO | biofilm formation | 72% |
| CCn1cc(-c2cc(Cn3ccoc3=N)cc3c2CCN([C@@H](C)c2cc(OC)ccn2)C3=O)c(C(F)(F)F)n1 | SK-LU-1 | cell growth, inhibitor | – | 120 h | – | EC50 | > 30 µM |
| Clc1ccc(C(c2ccc(Cl)cc2)n2cc[n+](CC(OCc3ccc(Cl)cc3Cl)c3ccc(Cl)cc3Cl)c2)cc1 (centres unmarked) | Toxoplasma gondii | parasite growth | HFF, bradyzoite, glutamine-induced | – | – | EC50 | 2.71 µM |
| COc1cc(C#CC(=O)C2CCCCC2)ccc1O | Pseudomonas aeruginosa | optical density | – | 100 µM | – | growth inhibition | 20% |
| O=C(Nc1ccncc1)c1cc([N+](=O)[O-])ccc1Cl | Toxoplasma gondii | bradyzoite growth | – | glutamine-induced bradyzoites, glucose-free medium | – | EC50 | 0.6 µM |
| COc1cc(C#CC(=O)c2ccccc2C)ccc1O | Pseudomonas aeruginosa | static biofilm | PA14 | 10 µM, 24 h | baseline: DMSO | biofilm formation | 75% |

For quick reference, copied from above:
| SMILES | target or system | test | test system | setting | scale | quantity | value |
| --- | --- | --- | --- | --- | --- | --- | --- |
| S=C(S)N1CCCC1 | Toxoplasma gondii | parasite growth | HFF, bradyzoite, glutamine-induced | – | – | EC90 | 22.2 µM |
| COc1cc(C#CC(=O)c2ccccc2)ccc1O | Pseudomonas aeruginosa | RT-qPCR, measured: phzC1 | biofilm cells | 10 µM, 24 h | baseline: untreated | mRNA level | 34% |
